{"data": "Assay results collected from several papers", "note": "Every numbered part comes from another study and shows a few of its results, in no order. Positions count from the first letter of the parent shown.", "sequence of UniProt P51957 (whole entry, looked up)": "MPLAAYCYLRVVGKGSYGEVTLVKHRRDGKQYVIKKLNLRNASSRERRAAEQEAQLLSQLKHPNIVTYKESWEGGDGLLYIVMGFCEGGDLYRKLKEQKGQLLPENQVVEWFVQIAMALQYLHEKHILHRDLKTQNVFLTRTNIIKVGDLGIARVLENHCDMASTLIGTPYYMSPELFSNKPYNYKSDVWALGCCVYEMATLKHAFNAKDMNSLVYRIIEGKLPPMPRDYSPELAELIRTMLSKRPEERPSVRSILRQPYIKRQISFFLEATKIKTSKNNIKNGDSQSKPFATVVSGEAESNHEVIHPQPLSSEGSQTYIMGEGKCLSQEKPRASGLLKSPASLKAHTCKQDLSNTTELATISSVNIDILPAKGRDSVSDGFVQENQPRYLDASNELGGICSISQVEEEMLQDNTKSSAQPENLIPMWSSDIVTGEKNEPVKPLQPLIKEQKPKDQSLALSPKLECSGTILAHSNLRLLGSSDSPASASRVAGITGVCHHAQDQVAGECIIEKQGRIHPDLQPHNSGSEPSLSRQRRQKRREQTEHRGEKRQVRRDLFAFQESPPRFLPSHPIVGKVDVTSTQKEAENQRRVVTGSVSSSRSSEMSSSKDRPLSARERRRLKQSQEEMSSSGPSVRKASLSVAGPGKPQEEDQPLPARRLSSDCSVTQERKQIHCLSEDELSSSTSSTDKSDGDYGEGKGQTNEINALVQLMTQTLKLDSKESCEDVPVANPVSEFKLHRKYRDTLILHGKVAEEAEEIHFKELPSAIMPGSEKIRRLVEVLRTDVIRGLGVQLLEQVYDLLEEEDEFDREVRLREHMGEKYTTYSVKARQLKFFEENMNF", "sequence of UniProt Q02779 (whole entry, looked up)": "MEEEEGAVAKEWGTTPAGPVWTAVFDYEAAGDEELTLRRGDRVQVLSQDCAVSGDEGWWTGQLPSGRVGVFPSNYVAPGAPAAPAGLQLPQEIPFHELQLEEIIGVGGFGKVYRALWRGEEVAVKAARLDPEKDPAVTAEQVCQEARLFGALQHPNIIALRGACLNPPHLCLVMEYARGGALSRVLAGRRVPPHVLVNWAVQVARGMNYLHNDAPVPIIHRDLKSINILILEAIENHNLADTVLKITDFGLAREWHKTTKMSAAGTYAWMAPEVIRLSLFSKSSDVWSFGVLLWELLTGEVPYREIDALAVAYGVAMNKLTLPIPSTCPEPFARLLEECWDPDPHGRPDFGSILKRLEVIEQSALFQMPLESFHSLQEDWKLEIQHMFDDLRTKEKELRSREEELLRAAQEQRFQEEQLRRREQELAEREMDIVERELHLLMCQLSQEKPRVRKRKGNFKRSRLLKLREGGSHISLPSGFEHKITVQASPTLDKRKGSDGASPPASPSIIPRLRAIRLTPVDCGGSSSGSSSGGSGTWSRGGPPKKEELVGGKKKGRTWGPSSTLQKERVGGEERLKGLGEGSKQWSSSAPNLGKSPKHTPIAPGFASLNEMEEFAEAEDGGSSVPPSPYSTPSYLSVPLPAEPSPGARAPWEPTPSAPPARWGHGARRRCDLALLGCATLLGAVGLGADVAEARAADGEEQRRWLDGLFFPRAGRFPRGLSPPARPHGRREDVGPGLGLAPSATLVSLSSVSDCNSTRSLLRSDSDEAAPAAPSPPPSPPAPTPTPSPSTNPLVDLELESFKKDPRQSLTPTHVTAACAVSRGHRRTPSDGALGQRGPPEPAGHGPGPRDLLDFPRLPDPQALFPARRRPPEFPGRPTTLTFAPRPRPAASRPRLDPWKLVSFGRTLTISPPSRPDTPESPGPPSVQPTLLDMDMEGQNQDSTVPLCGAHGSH", "sequence of UniProt P48729 (whole entry, looked up)": "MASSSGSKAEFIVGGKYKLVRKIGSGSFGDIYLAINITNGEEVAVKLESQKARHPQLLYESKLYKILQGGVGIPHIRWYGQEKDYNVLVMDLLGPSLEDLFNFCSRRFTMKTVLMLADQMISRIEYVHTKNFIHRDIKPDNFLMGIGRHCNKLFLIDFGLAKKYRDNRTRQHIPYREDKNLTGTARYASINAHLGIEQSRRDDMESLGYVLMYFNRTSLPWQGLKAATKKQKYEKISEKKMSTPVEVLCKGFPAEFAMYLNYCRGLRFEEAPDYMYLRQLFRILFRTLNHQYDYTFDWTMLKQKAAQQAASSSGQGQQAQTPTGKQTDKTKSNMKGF"}
{"data": "Set 1", "target": "UDP-N-acetylglucosamine--peptide N-acetylglucosaminyltransferase 110 kDa subunit (OGT, Homo sapiens, UniProt O15294)", "read-out": "binding", "method": "phage display NGS", "molecule type": "peptide", "relative to": "input library", "Residues (O15294 1-1046)": "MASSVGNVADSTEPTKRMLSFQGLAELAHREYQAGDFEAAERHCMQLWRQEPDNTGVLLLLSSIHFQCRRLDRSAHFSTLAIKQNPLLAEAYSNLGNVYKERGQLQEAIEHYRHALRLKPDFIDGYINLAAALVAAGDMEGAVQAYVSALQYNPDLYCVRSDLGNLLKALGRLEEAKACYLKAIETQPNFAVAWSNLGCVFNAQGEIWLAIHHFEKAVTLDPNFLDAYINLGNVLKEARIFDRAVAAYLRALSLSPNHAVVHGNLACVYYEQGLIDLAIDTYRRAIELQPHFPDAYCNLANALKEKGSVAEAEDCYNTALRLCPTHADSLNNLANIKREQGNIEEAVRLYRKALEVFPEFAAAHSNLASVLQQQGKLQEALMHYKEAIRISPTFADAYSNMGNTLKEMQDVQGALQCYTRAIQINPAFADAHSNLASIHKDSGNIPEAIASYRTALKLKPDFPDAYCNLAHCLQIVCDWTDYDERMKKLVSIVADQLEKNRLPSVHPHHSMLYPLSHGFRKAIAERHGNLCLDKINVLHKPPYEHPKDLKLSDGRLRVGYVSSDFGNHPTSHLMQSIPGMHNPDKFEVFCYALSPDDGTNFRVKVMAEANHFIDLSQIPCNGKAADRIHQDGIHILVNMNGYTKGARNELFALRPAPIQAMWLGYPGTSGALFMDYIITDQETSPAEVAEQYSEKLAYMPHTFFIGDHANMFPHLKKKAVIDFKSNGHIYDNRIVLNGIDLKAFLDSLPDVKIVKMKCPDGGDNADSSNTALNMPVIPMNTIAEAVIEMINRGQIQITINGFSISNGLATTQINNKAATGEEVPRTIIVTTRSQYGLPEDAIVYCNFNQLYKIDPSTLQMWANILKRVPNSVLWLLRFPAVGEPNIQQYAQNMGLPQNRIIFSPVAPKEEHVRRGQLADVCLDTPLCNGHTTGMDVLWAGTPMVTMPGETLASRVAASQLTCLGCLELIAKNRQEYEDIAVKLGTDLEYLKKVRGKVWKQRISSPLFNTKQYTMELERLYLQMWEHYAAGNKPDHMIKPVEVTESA"}
{"Sequence": "HTPRVDYRFHATHHH", "minimum log2 enrichment ratio": 2.67}
{"Sequence": "TDRVGTYLPHYQIFF", "minimum log2 enrichment ratio": 3.48}
{"Sequence": "HGQQMKNPHHHHPMW", "minimum log2 enrichment ratio": 3.72}
{"Sequence": "ENVVWPHYHHHSTYI", "minimum log2 enrichment ratio": 1.97}
{"Sequence": "DFMPYYQIIYTAPQS", "minimum log2 enrichment ratio": 5.75}
{"Sequence": "QHQHHQIITHYVDVA", "minimum log2 enrichment ratio": 1.43}
{"Sequence": "HVNYTTGHHTMSMH", "minimum log2 enrichment ratio": 2.51}
{"Sequence": "YAPQYQILFNYNIKL", "minimum log2 enrichment ratio": 3.97}
{"data": "Set 2", "SMILES": "N/C(=N\\[N+](=O)[O-])N/N=C\\c1ccc(-c2cccc([N+](=O)[O-])c2)o1", "read-out": "enzyme activity", "mode": "inhibitor", "concentration": "0.5 µM", "relative to": "control"}
{"target": "MAP3K10 (Homo sapiens, UniProt Q02779)", "remaining activity [%]": 101}
{"target": "CSNK1A1 (Homo sapiens, UniProt P48729)", "remaining activity [%]": 113}
{"target": "NEK4 (Homo sapiens, UniProt P51957)", "remaining activity [%]": 103}
{"data": "Set 3", "target": "CCNB2, cyclin fold, Cln2 fusion (human)", "method": "yeast growth competition, sequencing", "sample": "yeast", "setting": "strong parent motif", "relative to": "not given", "direction": "higher = stronger binding", "parent": "viral docking peptide; YKVKRRLVFGADD; partner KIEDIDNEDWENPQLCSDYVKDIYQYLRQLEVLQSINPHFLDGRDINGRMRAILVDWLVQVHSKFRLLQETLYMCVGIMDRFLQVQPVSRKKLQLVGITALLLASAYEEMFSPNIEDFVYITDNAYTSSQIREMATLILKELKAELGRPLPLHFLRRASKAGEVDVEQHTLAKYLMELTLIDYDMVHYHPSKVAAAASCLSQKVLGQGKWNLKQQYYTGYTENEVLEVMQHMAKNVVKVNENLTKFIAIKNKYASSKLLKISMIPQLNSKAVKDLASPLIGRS"}
{"Change": "G10T", "normalised enrichment score": 2.1}
{"Change": "D12G", "normalised enrichment score": 1.36}
{"Change": "K2R", "normalised enrichment score": 2.03}
{"Change": "G10E", "normalised enrichment score": 3.04}
{"Change": "D12L", "normalised enrichment score": 0.809}
{"Change": "R6V", "normalised enrichment score": 0.678}
{"Change": "F9D", "normalised enrichment score": 0.3}
{"Change": "R6M", "normalised enrichment score": 1}
{"data": "Single results of other studies"}
{"SMILES": "CNC(=O)c1cc(C(=O)N[C@H]2[C@@H]3COC[C@@H]32)cc2c1O[C@@H](CF)[C@@H]2c1ccccc1", "target": "5-hydroxytryptamine receptor 1A (HTR1A, Homo sapiens, UniProt P08908)", "read-out": "binding", "method": "radioligand binding", "concentration": "10 µM", "measurement": "inhibition", "value": "14.9%"}
{"note": "Some of these lines once more (set 1):"}
{"Sequence": "TDRVGTYLPHYQIFF", "minimum log2 enrichment ratio": 3.48}
{"Sequence": "HTPRVDYRFHATHHH", "minimum log2 enrichment ratio": 2.67}
